Assay results pooled from the literature.
Protocols differ between the studies behind these lines. Numbers after ± are the reported error.

| Compound | test system | conditions | tissue uptake |
| --- | --- | --- | --- |
| C[C@@H](O)[C@H](NC(=O)[C@@H]1CSSC[C@H](NC(=O)[C@@H](Cc2ccccc2)NC(=O)CN2CCCN3CCN(CCCN(CC(=O)O)CC3)CC2)C(=O)N[C@@H](Cc2ccc(O)cc2)C(=O)N[C@H](Cc2c[nH]c3ccccc23)C(=O)N[C@@H](CCCCN)C(=O)N[C@@H]([C@@H](C)O)C(=O)N1)C(=O)O [copper-64 labelled] | female C.B.17 SCID mouse, MCF7 xenograft, tumour | intravenous, 185 kBq, 4 h, intratumoral saline control | 1.04 ± 0.21 %ID/g |
| CSCC[C@H](NC(=O)[C@H](CC(C)C)NC(=O)[C@H](Cc1c[nH]cn1)NC(=O)CNC(=O)[C@@H](NC(=O)[C@H](C)NC(=O)[C@H](Cc1c[nH]c2ccccc12)NC(=O)[C@H](CCC(N)=O)NC(=O)CCOCCOCCOCCOCCNC(=O)CN1CCN(CC(=O)O)CCN(CC(=O)O)CCN(CC(=O)O)CC1)C(C)C)C(N)=O [indium-111 labelled] | Swiss nu/nu mouse, male, PC-3 tumour xenograft, pancreas | intravenous, 10 pmol, 1 h | 20.8 ± 3.9 %ID/g |
| Cc1cc(O)cc(C)c1C[C@H](NC(=O)[C@@H]1CCCN1C(=O)[C@H](CCCNC(=N)N)NC(=O)[C@H](CCCNC(=N)N)N(C)C(=O)[C@@H]1CCCN1C(=O)[C@H](CCCCN)NC(=O)[C@@H](CC(C)C)NC(=O)[C@@H](CC(C)C)NC(=O)[C@@H](CC(C)C)NC(=O)[C@@H](CC(C)C)NC(=O)CN1CCN(CC(=O)O)CCN(CC(=O)O)CCN(CC(=O)O)CC1)C(=O)N[C@H](C(=O)N[C@@H](CC(C)C)C(=O)O)C(C)(C)C [lutetium-177 labelled] | CF-1 mouse, kidney | iv, 370 kBq, 24 h | 44 ± 6.92 %ID/g |
| CC(C)C[C@H](NC(=O)CN1CCN(CC(=O)O)CCN(CC(=O)O)CC1)C(=O)N[C@@H](CC(C)C)C(=O)N[C@@H](CC(C)C)C(=O)N[C@@H](CC(C)C)C(=O)N[C@@H](CCCNC(=N)N)C(=O)N[C@H](C(=O)N[C@@H](CCCCN)C(=O)N[C@@H](CCCNC(=N)N)C(N)=O)C(C)C [copper-64 labelled] | CD1 mouse, male, spleen | intravenous, 15 min | 2.8 ± 0.06 %ID/g |
| CC(C)C[C@H](NC(=O)[C@@H](CCCCNC(=O)CCCCCNC(=O)CN1CCN(CC(=O)O)CCN(CC(=O)O)CCN(CC(=O)O)CC1)NC(=O)[C@H](Cc1ccc(O)cc1)NC(=O)[C@H](CO)NC(=O)[C@H](Cc1c[nH]c2ccccc12)NC(=O)[C@H](Cc1cnc[nH]1)NC(=O)[C@@H]1CCC(=O)N1)C(=O)N[C@@H](CCCNC(=N)N)C(=O)N1CCC[C@H]1C(=O)NCC(N)=O [indium-111 labelled] | female athymic nude mouse, stomach | intravenous, 0.037 MBq, 2 h | 0.31 ± 0.31 %ID/g |
| Cc1cc(O)cc(C)c1C[C@H](NC(=O)[C@@H]1CCCN1C(=O)[C@H](CCCNC(=N)N)NC(=O)[C@H](CCCNC(=N)N)N(C)C(=O)[C@@H]1CCCN1C(=O)[C@@H](CC(C)C)NC(=O)[C@@H](CC(C)C)NC(=O)[C@H](CCCCN)NC(=O)[C@@H](CC(C)C)NC(=O)[C@@H](CC(C)C)NC(=O)CN1CCN(CC(=O)O)CCN(CC(=O)O)CCN(CC(=O)O)CC1)C(=O)N[C@H](C(=O)N[C@@H](CC(C)C)C(=O)O)C(C)(C)C [lutetium-177 labelled] | CF-1 mouse, blood | iv, 370 kBq, 4 h | 0.06 ± 0.08 %ID/g |
| N=C(N)NCCC[C@@H]1NC(=O)[C@H](CCCCNC(=O)CCOCCOCCOCCOCCNC(=O)CC[C@H](NC(=O)CCOCCOCCOCCOCCNC(=O)CN2CCN(CC(=O)O)CCN(CC(=O)O)CCN(CC(=O)O)CC2)C(=O)NCCOCCOCCOCCOCCC(=O)NCCCC[C@@H]2NC(=O)[C@@H](Cc3ccccc3)NC(=O)[C@H](CC(=O)O)NC(=O)CNC(=O)[C@H](CCCNC(=N)N)NC2=O)NC(=O)[C@@H](Cc2ccccc2)NC(=O)[C@H](CC(=O)O)NC(=O)CNC1=O [copper-64 labelled] | athymic nu/nu mouse, female, kidney | intravenous, 4 h | 2.81 ± 0.36 %ID/g |
| Cc1cc(O)cc(C)c1C[C@H](NC(=O)[C@@H]1CCCN1C(=O)[C@H](CCCNC(=N)N)NC(=O)[C@H](CCCNC(=N)N)N(C)C(=O)[C@@H]1CCCN1C(=O)[C@@H](CC(C)C)NC(=O)[C@@H](CC(C)C)NC(=O)[C@@H](CC(C)C)NC(=O)[C@@H](CC(C)C)NC(=O)[C@H](CCCCN)NC(=O)CN1CCN(CC(=O)O)CCN(CC(=O)O)CCN(CC(=O)O)CC1)C(=O)N[C@H](C(=O)N[C@@H](CC(C)C)C(=O)O)C(C)(C)C [lutetium-177 labelled] | CF-1 mouse, small intestine | iv, 370 kBq, 1 h | 2.72 ± 0.48 %ID/g |
| CCCC[C@H](NC(=O)CNC(=O)CNC(=O)CN1CCN(CC(=O)O)CCN(CC(=O)O)CCN(CC(=O)O)CC1)C(=O)N[C@H]1CC(=O)NCCCC[C@@H](C(N)=O)NC(=O)[C@H](Cc2c[nH]c3ccccc23)NC(=O)[C@H](CCCNC(=N)N)NC(=O)[C@@H](Cc2ccccc2)NC(=O)[C@H](Cc2c[nH]cn2)NC1=O [lutetium-177 labelled] | C57 mouse, female, brain | intravenous, 0.037 MBq, 24 h | 0.02 ± 0.02 %ID/g |

A few entries again:
| Compound | test system | conditions | tissue uptake |
| --- | --- | --- | --- |
| CC(C)C[C@H](NC(=O)CN1CCN(CC(=O)O)CCN(CC(=O)O)CC1)C(=O)N[C@@H](CC(C)C)C(=O)N[C@@H](CC(C)C)C(=O)N[C@@H](CC(C)C)C(=O)N[C@@H](CCCNC(=N)N)C(=O)N[C@H](C(=O)N[C@@H](CCCCN)C(=O)N[C@@H](CCCNC(=N)N)C(N)=O)C(C)C [copper-64 labelled] | CD1 mouse, male, spleen | intravenous, 15 min | 2.8 ± 0.06 %ID/g |
| CC(C)C[C@H](NC(=O)[C@@H](CCCCNC(=O)CCCCCNC(=O)CN1CCN(CC(=O)O)CCN(CC(=O)O)CCN(CC(=O)O)CC1)NC(=O)[C@H](Cc1ccc(O)cc1)NC(=O)[C@H](CO)NC(=O)[C@H](Cc1c[nH]c2ccccc12)NC(=O)[C@H](Cc1cnc[nH]1)NC(=O)[C@@H]1CCC(=O)N1)C(=O)N[C@@H](CCCNC(=N)N)C(=O)N1CCC[C@H]1C(=O)NCC(N)=O [indium-111 labelled] | female athymic nude mouse, stomach | intravenous, 0.037 MBq, 2 h | 0.31 ± 0.31 %ID/g |
